{"data": "Assay results of several laboratories", "note": "Numbered parts are unrelated; each lists some results of a single study.", "sequence of UniProt Q92667 (591-691, looked up)": "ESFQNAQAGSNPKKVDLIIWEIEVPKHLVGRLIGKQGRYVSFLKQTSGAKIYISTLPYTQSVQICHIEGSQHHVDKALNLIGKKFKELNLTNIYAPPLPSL"}
{"data": "Study 1", "target": "Histone acetyltransferase KAT6A, winged helix 2, GST fusion (KAT6A, Homo sapiens, UniProt Q92794, residues 85-181)", "technique": "protein binding microarray", "molecule type": "double-stranded DNA, one strand shown", "sample": "in vitro", "concentration": "not given", "notes": "8-mer, flanks averaged, mean of 2 arrays, mostly near background", "relative to": "not given", "reading": "higher = stronger binding", "Residues (chain)": "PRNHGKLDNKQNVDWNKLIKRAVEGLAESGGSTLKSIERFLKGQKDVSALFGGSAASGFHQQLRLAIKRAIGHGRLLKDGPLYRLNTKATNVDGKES"}
{"Oligonucleotide": "GGTGGGTA", "E-score": -0.121}
{"Oligonucleotide": "CGATAGAG", "E-score": 0.141}
{"Oligonucleotide": "ACTCCACC", "E-score": -0.00347}
{"data": "Study 2", "target": "Sal-like protein 4, full length isoform A (SALL4, Homo sapiens, UniProt Q9UJQ4, residues 1-1053)", "technique": "universal PBM", "molecule type": "double-stranded DNA, one strand shown", "sample": "in vitro", "concentration": "600 nM", "notes": "8-mer, flanks averaged, mean of replicates", "reading": "higher = stronger binding", "sequence of UniProt Q9UJQ4 (whole entry, looked up)": "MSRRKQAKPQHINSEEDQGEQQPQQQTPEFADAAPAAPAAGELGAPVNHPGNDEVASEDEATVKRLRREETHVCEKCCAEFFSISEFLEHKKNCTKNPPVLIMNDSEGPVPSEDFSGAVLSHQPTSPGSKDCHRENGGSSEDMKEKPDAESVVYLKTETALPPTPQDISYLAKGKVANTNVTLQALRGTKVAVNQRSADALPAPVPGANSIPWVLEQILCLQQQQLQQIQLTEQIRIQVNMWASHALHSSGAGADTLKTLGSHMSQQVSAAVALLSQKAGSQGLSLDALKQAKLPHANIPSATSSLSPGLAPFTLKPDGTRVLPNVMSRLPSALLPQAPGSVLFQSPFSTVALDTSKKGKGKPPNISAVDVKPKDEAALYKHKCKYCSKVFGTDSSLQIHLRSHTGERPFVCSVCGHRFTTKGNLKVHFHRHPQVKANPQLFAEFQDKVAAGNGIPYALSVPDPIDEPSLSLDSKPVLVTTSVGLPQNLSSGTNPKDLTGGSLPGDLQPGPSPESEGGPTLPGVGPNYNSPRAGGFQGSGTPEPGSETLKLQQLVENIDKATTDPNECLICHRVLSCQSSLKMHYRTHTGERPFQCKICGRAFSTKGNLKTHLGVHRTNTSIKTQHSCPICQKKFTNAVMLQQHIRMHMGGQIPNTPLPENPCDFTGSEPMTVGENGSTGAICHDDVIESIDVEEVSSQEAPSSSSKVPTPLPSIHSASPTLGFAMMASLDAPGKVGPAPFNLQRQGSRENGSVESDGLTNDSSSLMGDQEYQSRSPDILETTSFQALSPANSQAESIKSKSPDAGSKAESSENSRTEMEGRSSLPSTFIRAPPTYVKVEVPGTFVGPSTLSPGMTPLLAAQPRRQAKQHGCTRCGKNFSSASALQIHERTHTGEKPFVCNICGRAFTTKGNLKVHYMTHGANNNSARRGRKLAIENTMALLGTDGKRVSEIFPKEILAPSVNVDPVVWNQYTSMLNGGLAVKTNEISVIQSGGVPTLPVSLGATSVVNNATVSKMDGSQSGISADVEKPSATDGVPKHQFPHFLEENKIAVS"}
{"Oligonucleotide": "CCGAGCAA", "E-score": -0.327}
{"Oligonucleotide": "TCACAGGA", "E-score": 0.16}
{"Oligonucleotide": "AGGTCTCC", "E-score": -0.139}
{"data": "Study 3", "target": "Interferon regulatory factor 7, full length, phosphomimetic (IRF7, Homo sapiens, UniProt Q92985, residues 1-503, S101K/S471D/S472D/S475D/S476D/S477D/S483D/S484D/S487D)", "technique": "protein-binding microarray", "molecule type": "double-stranded DNA, one strand shown", "sample": "in vitro", "concentration": "250 nM", "notes": "60-bp whole probe", "with": "salmon DNA 0.4 mg/ml", "relative to": "random background probes", "reading": "higher = stronger binding", "Residues (chain)": "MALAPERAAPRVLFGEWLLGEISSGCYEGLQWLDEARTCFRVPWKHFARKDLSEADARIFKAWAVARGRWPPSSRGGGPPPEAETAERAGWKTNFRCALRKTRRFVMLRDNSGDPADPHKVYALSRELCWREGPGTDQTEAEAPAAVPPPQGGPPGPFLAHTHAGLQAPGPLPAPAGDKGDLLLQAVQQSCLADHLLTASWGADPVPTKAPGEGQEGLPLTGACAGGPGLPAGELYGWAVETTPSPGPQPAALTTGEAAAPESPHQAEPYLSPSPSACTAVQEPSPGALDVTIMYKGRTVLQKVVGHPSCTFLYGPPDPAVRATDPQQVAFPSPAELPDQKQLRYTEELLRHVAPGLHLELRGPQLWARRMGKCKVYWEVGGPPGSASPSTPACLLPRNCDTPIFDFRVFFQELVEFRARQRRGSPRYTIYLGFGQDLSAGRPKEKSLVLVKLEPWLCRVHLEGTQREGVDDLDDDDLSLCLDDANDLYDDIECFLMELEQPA"}
{"Oligonucleotide": "GCCTAGCACAAGGAAGGACCATCCAGAGAGTGCTAGGTCTTGATTCGCTTGACGCTGCTG", "log fluorescence": "-0.115 z-score"}
{"Oligonucleotide": "GCCTAGCACGACGGTCTCGGTCTGGGGACGTGCTAGGTCTTGATTCGCTTGACGCTGCTG", "log fluorescence": "0.72 z-score"}
{"Oligonucleotide": "GCCTAGCACGACGCTCTCAGTCTCGAGACGTGCTAGGTCTTGATTCGCTTGACGCTGCTG", "log fluorescence": "0.673 z-score"}
{"Oligonucleotide": "GCCTAGCACTTAGGTTTCCGTATCCTTTAGTGCTAGGTCTTGATTCGCTTGACGCTGCTG", "log fluorescence": "3.66 z-score"}
{"data": "Mixed results"}
{"Oligonucleotide": "AAAAAAAA (biotin)", "target": "A-kinase anchor protein 1, mitochondrial, KH domain (AKAP1, Homo sapiens, UniProt Q92667, residues 591-691)", "test": "protein domain microarray", "system": "RNA, in vitro", "setting": "not given, poly(A) 8-mer RNA, whole probe, immobilized GST-fusion domains, most near background", "scale": "relative to: GST loading signal, higher = stronger binding", "endpoint": "signal ratio", "result": 0.0412}
{"note": "Some of these lines once more (study 1):"}
{"Oligonucleotide": "ACTCCACC", "E-score": -0.00347}
{"Oligonucleotide": "CGATAGAG", "E-score": 0.141}
